Published values collected from several papers.
Numbers after ± are the reported error.
SLC10A1: Hepatic sodium/bile acid cotransporter (SLC10A1, Homo sapiens, UniProt Q14973)
UniProt Q14973, sequence (whole entry, looked up): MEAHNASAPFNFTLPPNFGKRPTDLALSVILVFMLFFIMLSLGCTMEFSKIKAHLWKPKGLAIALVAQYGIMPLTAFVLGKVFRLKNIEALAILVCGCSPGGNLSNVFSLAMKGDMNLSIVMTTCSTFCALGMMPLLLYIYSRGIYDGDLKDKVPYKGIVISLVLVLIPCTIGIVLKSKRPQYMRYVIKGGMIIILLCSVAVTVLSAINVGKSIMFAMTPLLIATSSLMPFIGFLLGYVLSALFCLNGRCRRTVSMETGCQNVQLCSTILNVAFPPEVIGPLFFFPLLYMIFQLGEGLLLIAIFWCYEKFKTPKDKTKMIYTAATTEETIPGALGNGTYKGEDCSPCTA
Cyp2b1: Cytochrome P450 2B1 (Cyp2b1, Rattus norvegicus, UniProt P00176)
UniProt P00176, sequence (whole entry, looked up): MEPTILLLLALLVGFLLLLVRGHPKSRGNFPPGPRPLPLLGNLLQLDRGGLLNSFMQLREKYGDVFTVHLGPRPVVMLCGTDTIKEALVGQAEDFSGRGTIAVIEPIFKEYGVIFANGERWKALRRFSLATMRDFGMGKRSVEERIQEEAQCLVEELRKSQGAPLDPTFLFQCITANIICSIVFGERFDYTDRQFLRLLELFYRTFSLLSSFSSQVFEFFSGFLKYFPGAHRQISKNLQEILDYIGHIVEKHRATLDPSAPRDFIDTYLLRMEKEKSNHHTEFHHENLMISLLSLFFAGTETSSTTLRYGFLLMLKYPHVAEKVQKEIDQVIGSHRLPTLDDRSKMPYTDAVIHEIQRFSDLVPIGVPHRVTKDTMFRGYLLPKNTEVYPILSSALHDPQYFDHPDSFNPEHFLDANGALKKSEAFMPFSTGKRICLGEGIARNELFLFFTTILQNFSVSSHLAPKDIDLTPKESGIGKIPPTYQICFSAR
HDAC3 with NCoR2 DAD: Histone deacetylase 3, with NCoR2 DAD (HDAC3, Homo sapiens, UniProt O15379)
UniProt O15379, sequence (whole entry, looked up): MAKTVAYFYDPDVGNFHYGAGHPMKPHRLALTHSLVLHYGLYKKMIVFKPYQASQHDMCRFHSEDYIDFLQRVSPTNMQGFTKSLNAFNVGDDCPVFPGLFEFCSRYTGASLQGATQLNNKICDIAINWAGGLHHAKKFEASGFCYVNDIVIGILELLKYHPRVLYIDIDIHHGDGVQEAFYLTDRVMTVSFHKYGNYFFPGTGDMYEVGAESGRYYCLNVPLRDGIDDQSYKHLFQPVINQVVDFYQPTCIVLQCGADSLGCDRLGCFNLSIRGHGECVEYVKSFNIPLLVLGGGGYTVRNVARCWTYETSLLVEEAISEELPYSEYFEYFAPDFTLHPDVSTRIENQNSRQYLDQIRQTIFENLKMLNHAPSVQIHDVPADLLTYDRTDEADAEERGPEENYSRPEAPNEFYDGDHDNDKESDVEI
UniProt P52790, sequence (whole entry, unmodified, looked up): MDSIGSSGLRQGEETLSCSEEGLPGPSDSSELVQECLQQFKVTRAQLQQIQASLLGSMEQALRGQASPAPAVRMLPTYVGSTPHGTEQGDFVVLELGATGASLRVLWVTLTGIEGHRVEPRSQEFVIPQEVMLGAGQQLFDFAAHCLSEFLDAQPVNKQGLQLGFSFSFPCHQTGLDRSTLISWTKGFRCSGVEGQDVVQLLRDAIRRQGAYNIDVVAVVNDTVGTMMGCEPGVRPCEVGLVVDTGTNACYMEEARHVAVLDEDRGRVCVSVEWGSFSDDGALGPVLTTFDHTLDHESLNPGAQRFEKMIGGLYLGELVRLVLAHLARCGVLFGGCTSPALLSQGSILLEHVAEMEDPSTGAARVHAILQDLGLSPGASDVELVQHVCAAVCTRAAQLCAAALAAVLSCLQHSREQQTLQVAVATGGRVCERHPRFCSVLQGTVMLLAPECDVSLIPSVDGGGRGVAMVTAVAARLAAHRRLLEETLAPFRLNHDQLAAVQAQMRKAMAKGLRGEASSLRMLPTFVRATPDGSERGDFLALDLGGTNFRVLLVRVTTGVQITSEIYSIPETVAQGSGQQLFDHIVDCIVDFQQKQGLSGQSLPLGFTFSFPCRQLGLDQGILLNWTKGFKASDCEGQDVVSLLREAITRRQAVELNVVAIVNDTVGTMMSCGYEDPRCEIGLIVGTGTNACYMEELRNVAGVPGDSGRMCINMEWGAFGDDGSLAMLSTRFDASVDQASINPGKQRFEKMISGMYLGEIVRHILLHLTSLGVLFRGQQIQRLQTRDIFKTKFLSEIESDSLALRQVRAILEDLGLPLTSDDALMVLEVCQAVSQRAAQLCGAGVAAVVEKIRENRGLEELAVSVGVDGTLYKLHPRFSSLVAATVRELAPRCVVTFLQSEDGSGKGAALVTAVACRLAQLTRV
UniProt Q14432, sequence (whole entry, looked up): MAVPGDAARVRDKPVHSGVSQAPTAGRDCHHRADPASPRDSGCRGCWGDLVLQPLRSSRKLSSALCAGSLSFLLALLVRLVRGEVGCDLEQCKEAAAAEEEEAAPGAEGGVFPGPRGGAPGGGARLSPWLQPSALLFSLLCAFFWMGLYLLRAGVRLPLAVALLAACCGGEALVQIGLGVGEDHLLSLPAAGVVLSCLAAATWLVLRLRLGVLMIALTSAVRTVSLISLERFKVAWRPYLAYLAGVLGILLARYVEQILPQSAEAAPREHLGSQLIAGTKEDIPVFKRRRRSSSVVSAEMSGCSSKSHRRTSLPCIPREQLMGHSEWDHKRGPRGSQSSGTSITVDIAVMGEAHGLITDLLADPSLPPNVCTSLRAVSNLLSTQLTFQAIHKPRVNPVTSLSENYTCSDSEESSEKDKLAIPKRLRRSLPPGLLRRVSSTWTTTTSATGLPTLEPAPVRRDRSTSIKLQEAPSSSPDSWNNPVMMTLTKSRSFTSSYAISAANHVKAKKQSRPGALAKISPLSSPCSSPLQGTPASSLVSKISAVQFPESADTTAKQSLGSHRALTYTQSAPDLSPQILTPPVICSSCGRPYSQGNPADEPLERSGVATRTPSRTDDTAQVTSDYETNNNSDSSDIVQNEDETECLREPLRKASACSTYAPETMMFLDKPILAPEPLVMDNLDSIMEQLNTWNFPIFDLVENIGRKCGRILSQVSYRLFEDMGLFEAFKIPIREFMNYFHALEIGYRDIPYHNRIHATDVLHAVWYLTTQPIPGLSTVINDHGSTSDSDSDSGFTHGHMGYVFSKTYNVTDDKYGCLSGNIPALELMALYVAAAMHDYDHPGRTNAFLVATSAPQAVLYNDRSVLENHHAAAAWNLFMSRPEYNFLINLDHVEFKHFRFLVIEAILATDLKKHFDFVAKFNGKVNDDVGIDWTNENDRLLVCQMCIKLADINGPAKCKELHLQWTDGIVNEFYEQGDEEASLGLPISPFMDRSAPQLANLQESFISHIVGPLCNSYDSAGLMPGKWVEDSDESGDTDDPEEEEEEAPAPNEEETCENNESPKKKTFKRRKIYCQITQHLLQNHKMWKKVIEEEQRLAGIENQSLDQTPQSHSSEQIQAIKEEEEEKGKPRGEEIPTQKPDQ
UniProt P29275, sequence (whole entry, looked up): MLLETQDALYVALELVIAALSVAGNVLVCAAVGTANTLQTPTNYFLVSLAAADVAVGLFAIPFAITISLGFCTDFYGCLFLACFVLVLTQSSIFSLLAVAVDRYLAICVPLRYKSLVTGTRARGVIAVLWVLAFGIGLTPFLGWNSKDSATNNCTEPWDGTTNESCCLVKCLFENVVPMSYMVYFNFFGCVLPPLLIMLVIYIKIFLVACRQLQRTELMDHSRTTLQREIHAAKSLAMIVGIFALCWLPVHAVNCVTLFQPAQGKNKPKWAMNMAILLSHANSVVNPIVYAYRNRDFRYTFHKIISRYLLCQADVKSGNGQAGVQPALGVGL
UniProt P20309, sequence (whole entry, looked up): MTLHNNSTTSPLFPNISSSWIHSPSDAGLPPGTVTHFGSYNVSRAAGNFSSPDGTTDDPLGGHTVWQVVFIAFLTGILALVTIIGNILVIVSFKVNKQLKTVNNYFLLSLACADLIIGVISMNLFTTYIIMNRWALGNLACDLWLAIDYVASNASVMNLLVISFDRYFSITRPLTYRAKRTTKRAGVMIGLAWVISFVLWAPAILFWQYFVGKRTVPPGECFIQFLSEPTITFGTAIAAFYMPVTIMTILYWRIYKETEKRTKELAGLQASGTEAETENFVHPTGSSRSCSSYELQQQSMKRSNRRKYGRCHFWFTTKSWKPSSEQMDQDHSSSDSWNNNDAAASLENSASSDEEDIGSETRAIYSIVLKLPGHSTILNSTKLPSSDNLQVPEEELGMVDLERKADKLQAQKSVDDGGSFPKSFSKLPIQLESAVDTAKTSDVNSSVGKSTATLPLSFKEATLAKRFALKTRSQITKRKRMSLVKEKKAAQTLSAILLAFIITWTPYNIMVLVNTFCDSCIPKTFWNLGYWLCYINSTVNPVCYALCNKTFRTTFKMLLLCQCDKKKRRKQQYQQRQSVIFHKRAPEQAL

SMILES = Nc1nc2c(ncn2COCCO)c(=O)[nH]1; target = SLC10A1; assay = taurocholate uptake, inhibitor; test system = NTCP-expressing HEK293; conditions = together with: 10 µM taurocholate; Ki = 202 ± 52 µM
SMILES = Cc1ccc([C@H]2C[C@@H]2COc2cc(NCc3nnc(C)s3)nc(C)n2)nc1; target = PDE3A (Homo sapiens, UniProt Q14432); assay = enzyme activity, inhibitor, IMAP fluorescence polarization; conditions = together with: cAMP substrate; Ki = > 50 µM
SMILES = Nc1ccn([C@H]2CC[C@@H](CO)O2)c(=O)n1; target = SLC10A1; assay = taurocholate uptake, inhibitor; test system = NTCP-expressing HEK293; conditions = together with: 10 µM taurocholate; Ki = 2040 ± 1510 µM
SMILES = O=c1n(CCCN2CCN(c3cccc(Cl)c3)CC2)nc2ccccn12; target = ADORA2B (Homo sapiens, UniProt P29275); Ki = > 10 µM
SMILES = COC(=O)C1=C(C)NC(C)=C(C(=O)OCCN(C)Cc2ccccc2)C1c1cccc([N+](=O)[O-])c1 (stereo not drawn); target = SLC10A1; assay = taurocholate uptake, inhibitor; test system = NTCP-expressing HEK293; conditions = together with: 10 µM taurocholate; Ki = 309 ± 144 µM
SMILES = C#Cc1cccc2oc(-c3ccccc3)cc(=O)c12; target = Cyp2b1; assay = fluorimetric PROD; test system = recombinant supersomes; conditions = 6 min, pH 7.6, together with: pentoxyresorufin; Ki = > 25 µM
SMILES = OC[C@H]1OC(O)[C@H](O)[C@@H](O)[C@@H]1O (stereo partly drawn); target = Hexokinase-3 (HK3, Homo sapiens, UniProt P52790, R480W); assay = substrate inhibition; conditions = mutant R480W, partial substrate inhibition model, together with: ATP 20 mM; Ki = 2900 ± 800 µM
SMILES = O=C(NO)c1cncc(OS(=O)(=O)Oc2ccc3ccccc3c2)c1; target = HDAC3 with NCoR2 DAD; assay = enzyme activity, inhibitor, fluorogenic; Ki = 0.273 µM
SMILES = O=c1cc(-c2ccccc2)oc2c1ccc1ccccc12; target = Cyp2b1; assay = fluorimetric PROD; test system = recombinant supersomes; conditions = 6 min, pH 7.6, together with: pentoxyresorufin; Ki = 13 ± 2.6 µM
SMILES = O=C(/C=C/c1cccc(OS(=O)(=O)Oc2ccc(C(F)(F)F)cc2)c1)NO; target = HDAC3 with NCoR2 DAD; assay = enzyme activity, inhibitor, fluorogenic; Ki = 0.041 µM
SMILES = C#Cc1ccc2oc(-c3ccccc3)cc(=O)c2c1; target = Cyp2b1; assay = fluorimetric PROD; test system = recombinant supersomes; conditions = 6 min, pH 7.6, together with: pentoxyresorufin; Ki = > 25 µM
SMILES = CNC(=O)[C@@]12C[C@@H]1[C@@H](n1cnc3c(NC)nc(C#C[c-]4cccc4)nc31)[C@H](O)[C@@H]2O.[Fe+2].c1cc[cH-]c1; target = CHRM3 (Homo sapiens, UniProt P20309); assay = radioligand binding (PDSP); Ki = 1.7 µM

For quick reference, copied from above:
SMILES = Cc1ccc([C@H]2C[C@@H]2COc2cc(NCc3nnc(C)s3)nc(C)n2)nc1; target = PDE3A (Homo sapiens, UniProt Q14432); assay = enzyme activity, inhibitor, IMAP fluorescence polarization; conditions = together with: cAMP substrate; Ki = > 50 µM
